Measured values pooled from the literature.
Compare with care: the assays were run in different laboratories. Several values in a cell are separate wells, animals, samples, runs or records. ± gives the spread as reported.
MDM4: Protein Mdm4 (MDM4, Homo sapiens, UniProt O15151)
alpha-carbonic anhydrase: alpha-carbonic anhydrase (Enterococcus faecium, UniProt Q3XYE8)

By UniProt entry, the sequences of proteins in these tests, tags left out. Residues count along the entry.
UniProt O15151, 23-111 limits assumed: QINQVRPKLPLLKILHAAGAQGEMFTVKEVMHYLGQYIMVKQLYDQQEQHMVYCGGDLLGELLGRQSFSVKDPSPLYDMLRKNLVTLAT
UniProt Q3XYE8, 1-234: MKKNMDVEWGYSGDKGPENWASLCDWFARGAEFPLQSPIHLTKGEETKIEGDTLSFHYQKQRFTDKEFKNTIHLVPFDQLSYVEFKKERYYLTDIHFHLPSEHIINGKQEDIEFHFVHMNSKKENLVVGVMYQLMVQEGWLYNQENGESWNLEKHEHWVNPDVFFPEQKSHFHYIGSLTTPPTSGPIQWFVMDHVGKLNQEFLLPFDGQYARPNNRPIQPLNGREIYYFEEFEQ
UniProt A0A0D3DNX9, 1-518: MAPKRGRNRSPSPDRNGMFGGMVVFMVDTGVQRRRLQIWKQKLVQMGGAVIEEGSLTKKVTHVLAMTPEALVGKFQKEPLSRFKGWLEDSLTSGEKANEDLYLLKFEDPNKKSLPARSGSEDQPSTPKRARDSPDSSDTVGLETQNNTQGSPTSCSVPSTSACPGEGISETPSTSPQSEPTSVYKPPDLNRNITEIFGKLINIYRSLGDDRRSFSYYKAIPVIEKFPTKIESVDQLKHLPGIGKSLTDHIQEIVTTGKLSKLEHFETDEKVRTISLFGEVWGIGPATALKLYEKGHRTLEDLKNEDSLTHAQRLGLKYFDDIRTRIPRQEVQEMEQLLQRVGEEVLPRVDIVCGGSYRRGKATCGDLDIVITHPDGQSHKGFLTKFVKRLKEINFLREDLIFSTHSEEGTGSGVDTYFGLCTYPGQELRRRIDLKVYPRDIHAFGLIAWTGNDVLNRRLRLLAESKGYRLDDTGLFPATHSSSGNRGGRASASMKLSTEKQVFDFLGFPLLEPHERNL
UniProt Q9Y3Q0, whole entry: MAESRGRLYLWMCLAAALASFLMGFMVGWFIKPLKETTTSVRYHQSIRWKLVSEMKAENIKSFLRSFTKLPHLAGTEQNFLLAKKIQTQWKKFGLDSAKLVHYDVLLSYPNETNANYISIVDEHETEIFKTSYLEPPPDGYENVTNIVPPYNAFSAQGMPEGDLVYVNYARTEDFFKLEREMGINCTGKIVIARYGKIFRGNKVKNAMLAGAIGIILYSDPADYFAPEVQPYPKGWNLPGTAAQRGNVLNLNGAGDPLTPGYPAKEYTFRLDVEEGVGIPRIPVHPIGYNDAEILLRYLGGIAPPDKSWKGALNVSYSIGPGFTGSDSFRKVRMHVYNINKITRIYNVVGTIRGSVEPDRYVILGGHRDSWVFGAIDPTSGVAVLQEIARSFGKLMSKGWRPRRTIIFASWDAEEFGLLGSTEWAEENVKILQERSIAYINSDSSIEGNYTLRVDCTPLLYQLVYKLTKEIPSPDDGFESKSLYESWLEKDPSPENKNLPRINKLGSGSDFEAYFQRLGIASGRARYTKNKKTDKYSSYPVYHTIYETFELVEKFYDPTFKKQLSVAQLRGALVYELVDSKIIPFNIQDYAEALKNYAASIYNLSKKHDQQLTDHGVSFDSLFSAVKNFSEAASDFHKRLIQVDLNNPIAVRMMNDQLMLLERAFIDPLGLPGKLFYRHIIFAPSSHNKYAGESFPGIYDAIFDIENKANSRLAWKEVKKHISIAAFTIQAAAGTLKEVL
UniProt P21462, whole entry: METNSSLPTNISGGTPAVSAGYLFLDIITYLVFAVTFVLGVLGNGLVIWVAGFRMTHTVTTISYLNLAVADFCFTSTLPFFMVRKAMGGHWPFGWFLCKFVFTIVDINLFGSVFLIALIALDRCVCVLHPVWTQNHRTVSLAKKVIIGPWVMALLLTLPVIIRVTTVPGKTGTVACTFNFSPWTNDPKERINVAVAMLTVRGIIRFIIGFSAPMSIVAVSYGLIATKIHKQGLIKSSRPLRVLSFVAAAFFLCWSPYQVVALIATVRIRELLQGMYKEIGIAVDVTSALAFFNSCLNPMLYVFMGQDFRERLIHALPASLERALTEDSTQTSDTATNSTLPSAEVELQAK
UniProt P51812, whole entry: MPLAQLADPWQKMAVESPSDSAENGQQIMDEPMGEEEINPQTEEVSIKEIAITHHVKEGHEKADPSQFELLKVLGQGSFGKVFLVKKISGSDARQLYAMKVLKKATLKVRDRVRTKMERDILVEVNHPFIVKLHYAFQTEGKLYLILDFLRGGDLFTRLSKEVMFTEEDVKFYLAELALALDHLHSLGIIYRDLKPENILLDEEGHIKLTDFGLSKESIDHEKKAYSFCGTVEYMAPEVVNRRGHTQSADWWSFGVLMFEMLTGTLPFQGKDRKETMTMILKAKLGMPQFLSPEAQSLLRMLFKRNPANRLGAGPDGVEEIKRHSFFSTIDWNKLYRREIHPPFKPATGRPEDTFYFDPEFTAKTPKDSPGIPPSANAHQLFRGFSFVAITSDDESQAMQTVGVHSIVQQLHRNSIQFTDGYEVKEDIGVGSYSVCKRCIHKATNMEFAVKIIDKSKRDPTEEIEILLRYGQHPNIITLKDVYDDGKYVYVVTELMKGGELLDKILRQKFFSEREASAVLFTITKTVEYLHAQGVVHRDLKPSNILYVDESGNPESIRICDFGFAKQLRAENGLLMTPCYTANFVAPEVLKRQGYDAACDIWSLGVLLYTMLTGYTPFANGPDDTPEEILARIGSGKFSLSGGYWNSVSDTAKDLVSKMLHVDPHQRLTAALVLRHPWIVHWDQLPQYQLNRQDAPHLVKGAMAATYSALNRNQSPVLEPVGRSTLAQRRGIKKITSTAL
UniProt P28072, 35-239 limits assumed: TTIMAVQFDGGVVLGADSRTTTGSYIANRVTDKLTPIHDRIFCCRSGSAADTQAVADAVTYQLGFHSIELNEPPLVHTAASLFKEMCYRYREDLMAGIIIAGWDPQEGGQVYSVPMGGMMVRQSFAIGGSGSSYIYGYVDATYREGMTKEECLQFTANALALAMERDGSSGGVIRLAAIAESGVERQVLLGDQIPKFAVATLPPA
UniProt P26358, whole entry: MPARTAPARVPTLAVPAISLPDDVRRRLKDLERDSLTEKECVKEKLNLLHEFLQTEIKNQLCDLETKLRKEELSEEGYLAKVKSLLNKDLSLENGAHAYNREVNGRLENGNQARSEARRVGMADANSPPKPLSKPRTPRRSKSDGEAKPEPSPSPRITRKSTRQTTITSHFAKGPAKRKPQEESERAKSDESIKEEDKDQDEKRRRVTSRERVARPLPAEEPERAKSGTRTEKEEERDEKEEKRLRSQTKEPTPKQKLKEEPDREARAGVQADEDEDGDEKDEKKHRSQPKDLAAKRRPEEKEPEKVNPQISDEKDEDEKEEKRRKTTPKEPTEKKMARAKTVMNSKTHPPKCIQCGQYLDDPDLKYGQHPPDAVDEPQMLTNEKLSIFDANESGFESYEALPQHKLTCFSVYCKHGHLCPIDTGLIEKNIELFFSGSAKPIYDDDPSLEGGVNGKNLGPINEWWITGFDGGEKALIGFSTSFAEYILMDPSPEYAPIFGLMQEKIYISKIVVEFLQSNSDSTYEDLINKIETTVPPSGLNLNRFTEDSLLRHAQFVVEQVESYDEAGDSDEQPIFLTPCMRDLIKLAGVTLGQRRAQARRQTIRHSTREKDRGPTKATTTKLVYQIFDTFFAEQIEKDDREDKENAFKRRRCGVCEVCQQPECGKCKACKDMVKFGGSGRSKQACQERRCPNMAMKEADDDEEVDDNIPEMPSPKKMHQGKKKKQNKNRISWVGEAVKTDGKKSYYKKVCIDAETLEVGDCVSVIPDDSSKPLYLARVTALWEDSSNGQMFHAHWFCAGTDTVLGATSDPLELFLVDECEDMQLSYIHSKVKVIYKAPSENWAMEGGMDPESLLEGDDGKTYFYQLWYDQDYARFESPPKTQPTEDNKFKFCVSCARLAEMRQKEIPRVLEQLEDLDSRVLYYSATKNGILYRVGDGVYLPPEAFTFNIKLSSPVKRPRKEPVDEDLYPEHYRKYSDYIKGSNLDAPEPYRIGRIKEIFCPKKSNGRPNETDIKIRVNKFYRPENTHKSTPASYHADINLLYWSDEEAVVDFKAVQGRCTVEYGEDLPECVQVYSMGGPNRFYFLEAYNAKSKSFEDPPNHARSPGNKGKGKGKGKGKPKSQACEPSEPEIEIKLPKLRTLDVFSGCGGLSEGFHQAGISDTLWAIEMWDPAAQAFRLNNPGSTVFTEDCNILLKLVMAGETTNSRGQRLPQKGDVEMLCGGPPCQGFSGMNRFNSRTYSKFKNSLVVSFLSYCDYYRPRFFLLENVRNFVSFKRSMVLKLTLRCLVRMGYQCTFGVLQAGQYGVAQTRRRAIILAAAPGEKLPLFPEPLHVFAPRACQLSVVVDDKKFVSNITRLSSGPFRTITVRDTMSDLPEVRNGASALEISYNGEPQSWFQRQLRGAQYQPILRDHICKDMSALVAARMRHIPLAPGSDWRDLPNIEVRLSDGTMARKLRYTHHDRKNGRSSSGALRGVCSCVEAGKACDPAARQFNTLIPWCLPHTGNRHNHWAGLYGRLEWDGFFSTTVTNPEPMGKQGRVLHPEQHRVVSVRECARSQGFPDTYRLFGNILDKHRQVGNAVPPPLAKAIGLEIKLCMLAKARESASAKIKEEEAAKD
UniProt Q16539, whole entry: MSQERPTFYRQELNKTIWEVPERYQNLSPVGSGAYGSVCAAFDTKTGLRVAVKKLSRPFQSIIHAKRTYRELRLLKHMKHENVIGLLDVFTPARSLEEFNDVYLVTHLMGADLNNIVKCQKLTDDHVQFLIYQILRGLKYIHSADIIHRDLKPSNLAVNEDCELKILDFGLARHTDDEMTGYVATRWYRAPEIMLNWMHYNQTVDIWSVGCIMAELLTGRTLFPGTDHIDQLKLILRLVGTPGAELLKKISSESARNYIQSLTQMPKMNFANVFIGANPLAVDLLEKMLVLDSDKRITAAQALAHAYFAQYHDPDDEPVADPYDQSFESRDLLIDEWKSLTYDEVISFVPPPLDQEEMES
UniProt P02701, 25-152 limits assumed: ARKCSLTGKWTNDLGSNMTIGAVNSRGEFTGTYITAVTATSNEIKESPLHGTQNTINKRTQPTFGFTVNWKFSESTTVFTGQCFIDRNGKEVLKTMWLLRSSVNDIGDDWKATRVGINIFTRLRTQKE
UniProt P16083, whole entry: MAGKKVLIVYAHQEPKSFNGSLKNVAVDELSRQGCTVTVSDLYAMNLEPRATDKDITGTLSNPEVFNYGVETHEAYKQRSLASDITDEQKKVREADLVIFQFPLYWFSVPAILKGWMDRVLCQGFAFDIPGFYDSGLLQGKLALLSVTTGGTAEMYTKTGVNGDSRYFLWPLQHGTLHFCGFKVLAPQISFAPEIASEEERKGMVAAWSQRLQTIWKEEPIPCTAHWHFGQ
UniProt P50406, whole entry: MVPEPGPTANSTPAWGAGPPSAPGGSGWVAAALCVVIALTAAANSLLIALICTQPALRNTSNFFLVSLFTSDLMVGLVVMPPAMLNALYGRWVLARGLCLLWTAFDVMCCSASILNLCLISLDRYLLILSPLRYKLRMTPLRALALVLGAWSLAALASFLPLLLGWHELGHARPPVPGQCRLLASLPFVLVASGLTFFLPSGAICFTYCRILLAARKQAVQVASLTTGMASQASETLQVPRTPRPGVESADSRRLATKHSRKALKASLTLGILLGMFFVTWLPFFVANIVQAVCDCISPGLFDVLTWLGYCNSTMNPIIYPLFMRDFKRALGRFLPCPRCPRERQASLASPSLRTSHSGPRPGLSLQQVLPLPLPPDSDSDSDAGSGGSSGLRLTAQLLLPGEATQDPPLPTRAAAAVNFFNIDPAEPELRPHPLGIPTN
UniProt Q06124, 1-535 limits assumed: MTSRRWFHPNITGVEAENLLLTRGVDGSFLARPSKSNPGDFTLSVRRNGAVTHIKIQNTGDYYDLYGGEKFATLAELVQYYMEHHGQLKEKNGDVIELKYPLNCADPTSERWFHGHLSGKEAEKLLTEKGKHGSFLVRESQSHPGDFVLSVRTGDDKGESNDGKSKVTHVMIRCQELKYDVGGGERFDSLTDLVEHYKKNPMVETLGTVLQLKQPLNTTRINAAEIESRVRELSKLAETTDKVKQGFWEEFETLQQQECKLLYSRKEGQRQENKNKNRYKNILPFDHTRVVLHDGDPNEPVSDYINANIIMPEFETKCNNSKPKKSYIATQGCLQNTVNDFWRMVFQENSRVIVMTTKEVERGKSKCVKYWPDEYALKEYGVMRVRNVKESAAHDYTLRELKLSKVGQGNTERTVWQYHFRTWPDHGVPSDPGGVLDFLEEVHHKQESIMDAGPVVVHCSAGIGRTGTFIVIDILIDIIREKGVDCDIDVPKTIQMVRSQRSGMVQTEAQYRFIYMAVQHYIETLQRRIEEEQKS
UniProt P11245, whole entry: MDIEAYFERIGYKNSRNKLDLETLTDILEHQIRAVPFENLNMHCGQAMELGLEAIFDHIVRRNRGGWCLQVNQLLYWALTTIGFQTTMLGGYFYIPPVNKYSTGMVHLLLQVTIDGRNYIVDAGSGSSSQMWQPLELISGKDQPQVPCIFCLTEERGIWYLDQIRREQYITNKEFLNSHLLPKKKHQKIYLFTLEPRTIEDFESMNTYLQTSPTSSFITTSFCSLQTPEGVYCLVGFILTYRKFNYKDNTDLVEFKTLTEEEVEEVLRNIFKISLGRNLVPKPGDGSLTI

Structure (SMILES) | target or system | test | test system | setting | how to read | quantity | value
C=C(C)C(=O)Nc1ccc(-c2c(-c3ccc(Oc4nccc(C)n4)c(F)c3)c3c(N)ncnc3n2C)cc1 | MFM-223 | cell growth, CellTiter-Glo | – | 120 h | – | IC50 | 0.0058 µM
COc1cccc([C@@H]2N=C(c3ccc(OC)cc3OC(C)C)N(C(=O)N3CCNC(=O)C3)[C@@H]2c2ccc(Cl)cc2)c1 (relative stereo) | MDM4 | NMR HSQC titration | – | pH 6.5, 298 K, global fit | – | Kd | 2.4 ± 0.7 µM
CC/C=C\C/C=C\CCC/C=C/C=C/C=C\CCCC(=O)O | DNA polymerase (Brassica oleracea var. botrytis, UniProt A0A0D3DNX9) | enzyme activity, inhibitor | – | – | – | IC50 | > 100 µM
C#CCC(NC(=O)C1CC(C2CCCCC2)CN1C(=O)CSC1CCN(C(=O)CCC(NC(=O)NC(CCC(=O)O)C(=O)O)C(=O)O)CC1)C(=O)NCCOCCOCCNC(=S)Nc1ccc2c(c1)C(=O)OC21c2ccc(O)cc2Oc2cc(O)ccc21 (stereo not shown) | N-acetylated-alpha-linked acidic dipeptidase 2 (Homo sapiens, UniProt Q9Y3Q0) | fluorescence polarization | – | FITC-labelled compound | – | Kd | 0.04 µM
CCc1cc2c(=O)c(-c3nc4ccccc4n3C)c(C)oc2cc1OC(C)=O | FPR1 (Homo sapiens, UniProt P21462) | binding | – | single representative run | – | Ki | 0.037 µM
COc1ccc2[nH]c(C(=O)Nc3ccc(C(CC(C)C)=NNC(=N)N)cc3)cc2c1 | RPS6KA3 (Homo sapiens, UniProt P51812) | kinase activity, inhibitor, IMAP fluorescence polarization | – | – | – | IC50 | > 100 µM
COc1ccc(C2=N[C@@H](c3cccc(Cl)c3)[C@@H](c3ccc(Cl)cc3)N2C(=O)N2CCNC(=O)C2)c(OC(C)C)c1 (relative stereo) | MDM4 | isothermal titration calorimetry | – | 298 K | – | Kd | 4.7 ± 1.8 µM
CC(C)CC(NC(=O)C(Cc1ccccc1)NC(=O)c1cnc(C(=O)NC(Cc2ccccc2)C(=O)NC(CC(C)C)B(O)O)cn1)B(O)O (stereo not shown) | PSMB6 (Homo sapiens, UniProt P28072) | caspase-like activity, inhibitor, Proteasome-Glo | MM.1R | 24 h | – | IC50 | 0.009 ± 0.00042 µM
CCc1c(C#N)c(SC(C(N)=O)c2ccc(F)cc2)nc(N2CCC(N(C)C)CC2)c1C#N (stereo not shown) | DNMT1 (Homo sapiens, UniProt P26358) | degrader, Western blot | HCT-116 | 24 h | – | DC50 | 0.035 µM and < 0.05 µM
NS(=O)(=O)c1nnc(NC(=O)C2C3CC2C3)s1 (stereo not shown) | alpha-carbonic anhydrase | CO2 hydration, inhibitor, stopped-flow kinetics | – | – | – | Ki | 0.0251 µM
CC(C)C[C@H](NC(=O)[C@H](C)NC(=O)[C@H](CCCNC(=N)N)NC(=O)[C@H](CCCNC(=N)N)NC(=O)[C@H](CCCNC(=N)N)NC(=O)[C@H](C)NC(=O)[C@H](CC(C)C)NC(=O)[C@H](CCCNC(=N)N)NC(=O)[C@H](CO)NC(=O)[C@H](CCCCN)NC(=O)[C@H](CO)NC(=O)Cn1cc(COC(=O)[C@]2(C)C=C(C(=O)OC(C)(C)C)C(=O)CC2)nn1)C(=O)O | MAPK14 (Homo sapiens, UniProt Q16539) | enzyme activity, inhibitor, D-SENSOR kinase | – | 66.67 µM, unit not given | relative to: untreated | remaining activity | 0.0129 and 0.00576 and 0.002
CC[C@H](C)[C@@H]1NC(=O)[C@H](C(C)C)NC(=O)[C@H](Cc2ccc(O)cc2)NC(=O)[C@H](Cc2ccccc2)NC(=O)[C@H](CCC(N)=O)NC(=O)[C@@H]2CCCN2C(=O)[C@H](Cc2c[nH]cn2)NC(=O)[C@@H](NC(=O)[C@H](C)N)CSSC[C@@H](C(=O)N[C@@H](CO)C(=O)NCC(=O)O)NC1=O | Avidin, deglycosylated (AVD, Gallus gallus, UniProt P02701) | binding, yeast display flow cytometry | – | 30 to 300 nM, 1 h, 4 °C, with: neutravidin-DyLight 650 | – | apparent Kd | no binding
CC(C)(CC(=O)Nc1nnc(S(N)(=O)=O)s1)C1CCCCC1 | alpha-carbonic anhydrase | CO2 hydration, inhibitor, stopped-flow kinetics | – | – | – | Ki | 0.0171 µM
CON(C1CC[C@@]2(C)[C@H](CC[C@@H]3[C@@H]2CC[C@]2(C)[C@@H](c4ccc(=O)oc4)CC[C@]32O)C1)C1OCC(O)C(O)C1O (stereo partly shown) | Atp1a2, with beta-1 subunit (Rattus norvegicus, UniProt P06686) | Na+/K+ pump current, inhibitor, two-electrode voltage clamp | Xenopus oocytes expressing rat α2/β1 | holding potential -60 mV, endogenous current subtracted | – | IC50 | 0.11 µM
CCOC(=O)c1c(-c2ccc(Cl)cc2Cl)n(-c2nc(-c3ccc(Cl)cc3)c3c(NC(=O)c4ccccc4)nnc-3[nH]2)[nH]c1=O | SNB-75 | SRB | – | 10 µM | – | cell growth | 29.2%
[2H]C(C)(CO[C@H]1CC[C@H](CN2CCN(c3ccc4c(c3F)n(C)c(=O)n4C3CCC(=O)NC3=O)CC2)CC1)NS(=O)(=O)c1ccc(Nc2ncc(C(F)(F)F)c([C@H]3CC[C@@](C)(O)CC3)n2)c(C)c1 (stereo partly shown) | CDK2 (Homo sapiens, UniProt P24941) | degrader, AlphaLISA | MKN-1 CCNE1-amplified | 14 h | – | DC50 | 0.039 µM
CN(C)CCNC(=O)c1cc([N+](=O)[O-])cc2ccc(-c3ccccc3)nc12 | NQO2 (Homo sapiens, UniProt P16083) | enzyme activity, inhibitor | – | – | – | IC50 | 0.04 µM
N#Cc1c(-c2ccc(Cl)cc2Cl)n(-c2nc(-c3ccc(Cl)cc3)c3c(NC(=O)c4ccccc4)nnc-3[nH]2)[nH]c1=O | SN12C | SRB | – | 10 µM | – | cell growth | 32.5%
c1cnc2c(N3CCN(CCCN4CCN(c5cccc6sccc56)CC4)CC3)cccc2c1 | HTR6 (Homo sapiens, UniProt P50406) | binding | – | – | – | Ki | 0.0331 ± 0.0058 µM
C[C@H](NC(=O)[C@@H](N)Cc1ccc(O)cc1)C(=O)NCC(=O)N[C@@H](CO)C(=O)N[C@H](C(=O)N[C@@H](CC(=O)O)C(=O)N[C@@H](CCC(=O)O)C(=O)N[C@@H](CC(N)=O)C(=O)N[C@H](C(=O)N[C@@H](CC(=O)O)C(=O)N[C@@H](CO)C(=O)N[C@@H](CCC(=O)O)C(=O)O)[C@@H](C)O)[C@@H](C)O | Bifunctional polynucleotide phosphatase/kinase, FHA domain (Homo sapiens, UniProt Q96T60) | binding, isothermal titration calorimetry | – | 400 µM, pH 7.5, 10 °C | – | Kd | no binding
CC[C@H](C)[C@H](NC(=O)[C@H](CO)NC(=O)[C@H](C)NC(=O)[C@H](Cc1ccc(OP(=O)(O)O)cc1)NC(=O)[C@@H](NC(=O)[C@H](CO)NC(=O)[C@H](CC(C)C)NC(=O)CCOCCOCCOCCOCCOCCOCCOCCOCCNC(=O)[C@@H](NC(=O)[C@H](CC(C)C)NC(=O)[C@H](CC(=O)O)NC(=O)[C@H](CC(C)C)NC(=O)[C@H](CC(=O)O)NC(=O)[C@@H](NC(=O)[C@H](Cc1ccc(OP(=O)(O)O)cc1)NC(=O)[C@H](CC(N)=O)NC(=O)[C@@H](N)CC(C)C)[C@@H](C)CC)C(C)C)[C@@H](C)O)C(=O)N[C@@H](CC(N)=O)C(=O)N[C@@H](Cc1ccccc1)C(=O)N[C@@H](CCC(N)=O)C(=O)N[C@@H](CCCCN)C(N)=O | PTPN11 (Homo sapiens, UniProt Q06124) | enzyme activity, activator | – | with: DiFMUP 10 µM | – | EC50 | 0.448 ± 0.05 µM
CCOC(=O)Oc1ccc2c(c1OC(=O)OCC)C(=O)c1ccccc1C2=O | NAT2 (Homo sapiens, UniProt P11245) | enzyme activity, inhibitor | recombinant in yeast lysate | with: 10 µM sulfamethazine and 100 µM acetyl-CoA | – | IC50 | 82.2 ± 12.9 µM

For quick reference, copied from above:
Structure (SMILES) | target or system | test | test system | setting | how to read | quantity | value
CC[C@H](C)[C@@H]1NC(=O)[C@H](C(C)C)NC(=O)[C@H](Cc2ccc(O)cc2)NC(=O)[C@H](Cc2ccccc2)NC(=O)[C@H](CCC(N)=O)NC(=O)[C@@H]2CCCN2C(=O)[C@H](Cc2c[nH]cn2)NC(=O)[C@@H](NC(=O)[C@H](C)N)CSSC[C@@H](C(=O)N[C@@H](CO)C(=O)NCC(=O)O)NC1=O | Avidin, deglycosylated (AVD, Gallus gallus, UniProt P02701) | binding, yeast display flow cytometry | – | 30 to 300 nM, 1 h, 4 °C, with: neutravidin-DyLight 650 | – | apparent Kd | no binding
